# Measurements of several laboratories.
# A part holds a random share of what one study measured.

# Block 1
# Target: Interferon regulatory factor 5, full length, phosphomimetic (IRF5, Homo sapiens, UniProt Q13568-2, residues 1-514, K96S/S451D/S453D/S456D/S462D)
# Technique: protein-binding microarray
# Form: double-stranded DNA, one strand shown
# Sample: in vitro
# Concentration: 250 nM
# Notes: 60-bp whole probe
# Added: salmon DNA 0.4 mg/ml
# Reference: random background probes
# Direction: higher = stronger binding
# All sequences stand within: GCCTAGCAC … GTCTTGATTCGCTTGACGCTGCTG
Oligonucleotide,log fluorescence
TTAGGTCTCGGTTTCGGTTTGTGCTAG,8.57 z-score
GAAGGTATCGGACTGGGGACGTGCTAG,0.802 z-score
GGATTGCAACCCCTCAAAAAGTGCTAG,-0.31 z-score
GACGATATCGGGACTGCAGACGTGCTA,0.996 z-score
TTAGATCACAGTATCGATTAGTGCTAG,6.22 z-score
TCAACTTTCCACTTGTCACTGTGCTAG,1.3 z-score
TCACGTGACCCTCTCAAACTGTGCTAG,-0.494 z-score
GATGTTTTGAGTTTTCCTTCGTGCTAG,0.599 z-score
GACTGTCTCCTTTTCCTGACGTGCTAG,0.325 z-score
TTAGGTTTCGGTTCTGGTTAGTGCTAG,9.79 z-score
TTAGGTCTCCTTCTCCTCTAGTGCTAG,-0.285 z-score
TCATGAAGCGCTTCTCGAACTGTGCTA,0.0427 z-score
TTAGAACTGGGGTTTCCATTAGTGCTA,-0.0589 z-score
TCTTTCACAAGACGAAAGGAGTGCTAG,4.21 z-score
TCATTTTAATTTTTAACACTGTGCTAG,0.862 z-score
GTCTCTTGTTCTCTCTGGCCGTGCTAG,0.295 z-score
TTAGGTCTCCTTTACCTTTAGTGCTAG,-0.192 z-score
GAGTCTTCTCCTCTAGGTTCGTGCTAG,-0.104 z-score
TTAGATATCAGTATCCATTAGTGCTAG,1.59 z-score
GACGAACTGAGTTTCTAGACGTGCTAG,0.658 z-score
TGGTCTTTCTGTTTTCTCCAGTGCTAG,5.17 z-score
GACGATATCAGTATCGAGGCGTGCTAG,2.72 z-score
TCTCTGCTCCTTCTGACATCGTGCTAG,0.395 z-score
TCATTATTAGTGACTCAGACTGTGCTA,0.369 z-score
TCACCAATGCTTCTGGTACTGTGCTAG,-0.0866 z-score

# Block 2
# Target: Histone acetyltransferase KAT6A, winged helix 2, GST fusion (KAT6A, Homo sapiens, UniProt Q92794, residues 85-181)
# Technique: protein binding microarray
# Form: double-stranded DNA, one strand shown
# Sample: in vitro
# Concentration: not given
# Notes: 8-mer, flanks averaged, mean of 2 arrays, mostly near background
# Reference: not given
# Direction: higher = stronger binding
# Construct (chain): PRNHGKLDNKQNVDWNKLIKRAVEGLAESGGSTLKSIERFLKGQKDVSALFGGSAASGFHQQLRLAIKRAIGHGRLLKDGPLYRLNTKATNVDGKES
Oligonucleotide,E-score
CGCTTGCC,0.138
CGTAATTC,-0.122
GCCGTACC,0.275
ACAGCTAC,-0.162
AGCATGGC,0.185
CTTCTTCA,-0.0973
AAGGACTC,-0.178
CGGTTTTA,0.016
CATCTCGA,0.0198
CCTGAAGG,-0.012
CCGGAACA,0.115
GCGCGCGC,0.357
ATACAGAA,0.0468
GTGTCGAA,0.0328
GCGTTAGC,0.118
GATCAGGA,0.118
AGTCGCAT,0.0589
ACGGCTTA,0.0699
GGAGCAAC,-0.0129
GACAACCA,-0.0384
CAATCCGG,0.134
ACAGAAGG,-0.035
AGAACCGA,-0.00424
GAAGTTGC,-0.0269

# Block 3
# Target: RNA binding protein fox-1 homolog 2, RRM domain, GST-SBP tag (RBFOX2, Homo sapiens, UniProt O43251-10, residues 100-194)
# Technique: RNA Bind-n-Seq
# Form: RNA
# Sample: in vitro
# Concentration: 365 nM
# Notes: natural RNA segment, single round, ends assumed
# Reference: no-protein control
# Direction: higher = stronger binding
# All sequences stand within: GGGAGUUCUACAGUCCGACGAUC … UGGAAUUCUCGGGUGCCAA
# Residues (chain): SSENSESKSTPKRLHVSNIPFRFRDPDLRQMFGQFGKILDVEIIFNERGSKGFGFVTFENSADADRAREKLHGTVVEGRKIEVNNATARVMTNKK
Oligonucleotide,RBNS enrichment (R)
AGCAGGAUACAGGGCGAGGGAUGUGGCAGGUGAGGGGGCUCCCGCCUGUGCCCCUUCUCCUCACCAUGUCUCCCCCACCCUGCCUCAGUUCUCCGUUCCCCUUCAUCUCC,0.779
GAACAAACAACAACAAAAAAAGCCAAUGAAGCCAUGUGCUGUCCUUAGGCAGACGUACUUGUCUCCACUCCCCACUCCAUCUCAGCCCAACUCCAGACACCCUAGGGCUG,0.708
ACUUAAAAAGGGUUCUUUGUUGGGAGUCAAGUGACAGAGCAGACCUGGCCGCAGGGAGUUGUUCUGCUUCUGCUUUACCUCUCAGGACCAUUCCCAGGAGGAAAAGGUGG,0.162
CUUUACCUAGGGGUAUGUUUUCUGCCCUGCUUCCCAGUCCUCAUGAUUAUCUUUAAUACCCUAGGCCUGGAUUGAGAGGCCUUCCUGUUCUAAGCCUACAAGUACUACUU,0.34
GAUCCGUCUCGGCUACUGCAGAGCACUGACUGCUCUGAGGAGAGGGAAGAGGGUCUGCUGGGGGUUCCUGUGGCCUUCCGCUGUGUCUGGACAACACUAACACAGGACCC,0.383
AAAUGACCACUCCGUAAUAGAACAUUUCAUUCCGUCAGCUGGCCCCCACUUCCUUUCACUCACGCAUGGCCACAGCAUCUCUCUCUAGUAGCCGAGAGUGUCAUUCUCUC,4.23
UGAUUGAUUUUUAUGCUUGUUAGUGUAUUGCAAGAAACACAGAAAAUGUAGUUUUGUUUUAAUAAACAAAAAUUGAACAUACUCUUGAUGUGUUUGAUUUGUAUUUAAAA,2.2
GAGGUGUAAAUGCAAAAUUGCCAAAUAGCACAAACAAUGAAUGUUUUCUGGUUGUUAUAUAGAUGCCAAAAUAGCACUUUGAUAUUUGCAAAGUGCUUUAUGCUUUUUAA,0.676
UGCCAAAAACAAGAGGAGGAAACUGGCCCCAUACAGCCAUACCUGGAGCUGGAUCUGACCCUGAUUGGGGAGAGCUGAGUGCUGAGCCUUGGGAGCCCCUGCCAGCCACC,0.456
UGGAGGGUGGGGGGAGCUCAGUGGCAGGGAAUCAGCGGUCCGUGGGGUCGUGGGGACGGGAACAUGUGCCCGACCGCUCCAUCCCCUCCUCCUCCUUAGGAUGCAUAACC,0.845
GUGAUGGCCCCAUUUUUACAGUUUUCCACAUGCUGGGGAGCCUAGGCCAAGCUGGUCACAAGUGGUCACUUACUCUUGCCAUUCUUCAUGAACCAAACCAACUGUGUGAC,0.29
UCUUCCUGCAGUUGAUGUAAUUGCUUUGUUUGCAAUAGCACAAGCUGCAUUAUUCCAGUCAGGACUGUGAUAACUUGCUGCCAGCCCCACUCAACUUUCAGUUGGCUCUG,0.367

# Block 4
# Target: Prothrombin, mature alpha-thrombin (F2, Homo sapiens, UniProt P00734)
# Technique: aptamer microarray, sandwich
# Form: DNA with 2'F-ANA
# Sample: in vitro
# Concentration: 200 nM
# Notes: whole 15-mer aptamer, many near background
# Added: Cy3 exosite-II aptamer, 400 nM
# Direction: higher = stronger binding
# Oligonucleotide: GGTTGGTGTGGTTGG
Modification,mean fluorescence intensity [a.u.]
2'F-ANA at 2 4 5 6 9 10 11 13 14 15,48.2
2'F-ANA at 1 2 4 6 9 11 12 14 15,50.3
2'F-ANA at 1 2 4 5 9 12 13 15,67.6
2'F-ANA at 1 3 7 8 9 14,101
2'F-ANA at 3 7 8 9 10 15,568
2'F-ANA at 1 2 4 5 6 8 9 10 11 12 14 15,48.8
2'F-ANA at 3 6 7 9 13 15,773
2'F-ANA at 3 4 5 6 8 10 11 12,54.5
2'F-ANA at 1 4 6 8 10 11 14,46.9
2'F-ANA at 1 3 4 6 7 9 11,137
2'F-ANA at 3 7 8 11 12 14,781
2'F-ANA at 2 4 6 7 11 12,422
2'F-ANA at 1 9 10 11 12 13 14,46.5
2'F-ANA at 2 4 8 9 10 11 14 15,59.6
2'F-ANA at 1 2 3 4 6 7 10 11 12 13 15,60.6
2'F-ANA at 2 3 5 12 13 14 15,57.3
2'F-ANA at 1 2 4 12 15,363
2'F-ANA at 1 3 9 11 15,244
2'F-ANA at 2 3 5 7 10 13 15,53.6
2'F-ANA at 2 5 7 8 9,86.4
2'F-ANA at 2 6 10 11 12 13 14 15,110

# Excerpt of the above (block 1):
Oligonucleotide,log fluorescence
GACGATATCGGGACTGCAGACGTGCTA,0.996 z-score
TCTTTCACAAGACGAAAGGAGTGCTAG,4.21 z-score
TTAGGTCTCCTTCTCCTCTAGTGCTAG,-0.285 z-score
GGATTGCAACCCCTCAAAAAGTGCTAG,-0.31 z-score
TTAGATCACAGTATCGATTAGTGCTAG,6.22 z-score
